Measurements pooled from the literature.
Lines come from different studies, so protocols differ.
Target: Amine oxidase [flavin-containing] A (MAOA, Homo sapiens, UniProt P21397)
Sequence of UniProt P21397 (whole entry, looked up): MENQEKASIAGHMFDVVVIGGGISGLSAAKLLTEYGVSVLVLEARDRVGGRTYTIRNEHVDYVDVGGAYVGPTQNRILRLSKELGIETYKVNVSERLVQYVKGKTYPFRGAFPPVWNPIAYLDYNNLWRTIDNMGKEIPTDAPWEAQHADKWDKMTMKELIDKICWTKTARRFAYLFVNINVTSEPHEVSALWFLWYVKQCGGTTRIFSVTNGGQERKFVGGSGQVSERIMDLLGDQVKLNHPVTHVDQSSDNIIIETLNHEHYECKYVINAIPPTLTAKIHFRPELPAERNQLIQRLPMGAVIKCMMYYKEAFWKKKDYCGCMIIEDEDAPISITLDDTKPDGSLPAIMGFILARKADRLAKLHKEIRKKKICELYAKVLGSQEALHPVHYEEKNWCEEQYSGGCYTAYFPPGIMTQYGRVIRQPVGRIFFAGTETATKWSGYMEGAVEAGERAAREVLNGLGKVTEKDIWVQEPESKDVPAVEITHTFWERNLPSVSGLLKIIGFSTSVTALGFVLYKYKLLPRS
Action: inhibitor

CCCC[C@@H]1OC(=O)C2=C1CCC=C2  IC50 (enzyme activity, fluorescence): 47.6 µM
COc1cc(OC)c2c(c1)C(O)(c1cc(C)cc(OC)c1OC)NC2=O (racemic)  IC50 (20 min, pH 7.4, 37 °C, with: kynuramine 30 µM): > 100 µM
O=C1Nc2ccc(Cl)cc2/C1=N/N=C/c1cccc(OCc2ccccc2)c1  IC50 (enzyme activity, fluorescence): > 40 µM
COc1cc(OC)c2c(c1)C(N)(c1cc(C)cc(OC)c1OC)OC2=O (racemic)  IC50 (20 min, pH 7.4, 37 °C, with: kynuramine 30 µM): > 100 µM
COc1c(OC2OC(CO)C(O)C(O)C2O)c(C)cc2c1C(=O)c1c(O)cccc1C2=O (centres unmarked)  IC50 (enzyme activity): > 400 µM
Cc1ccc(C(=O)/C=C/c2ccc3c(c2)OCCO3)s1  IC50 (enzyme activity, fluorescence): > 40 µM
COc1cc2c(c(O)c1OC)C(=O)c1c(cc(C)c(O)c1OC)C2=O  IC50 (enzyme activity): 11.1 µM
COc1cc(C)cc(C2(O)NC(=O)c3c(OCc4ccccc4)cc(OCc4ccccc4)cc32)c1OC (racemic)  IC50 (20 min, pH 7.4, 37 °C, with: kynuramine 30 µM): > 100 µM
CCCCC1OC(=O)c2ccccc21 (centres unmarked)  IC50 (enzyme activity, fluorescence): 19.2 µM
COc1ccc2c(c1)/C(=N/N=C/c1ccc(OCc3cccc(F)c3)cc1)C(=O)N2  IC50 (enzyme activity, fluorescence): > 40 µM
COc1cc(OC2OC(COC3OC(CO)C(O)C(O)C3O)C(O)C(O)C2O)c2c(c1)cc(O)c1c(=O)cc(C)oc12 (centres unmarked)  IC50 (enzyme activity): 182 µM
C/C(=N\NC(=O)c1cccc(S(=O)(=O)N2CCOCC2)c1)c1cc(Cl)ccc1O  IC50 (enzyme activity): > 100 µM
CCC/C=C1\OC(=O)C2=C1CC[C@@H](O)[C@H]2O  IC50 (enzyme activity, fluorescence): 108 µM
Cc1ccc(C(=O)/C=C/c2ccc3c(c2)OCCO3)o1  IC50 (enzyme activity, fluorescence): > 40 µM
COc1cc(OC2OC(CO)C(O)C(O)C2O)c2c(OC)c(C(C)=O)c(OC3OCC(O)(CO)C3O)cc2c1 (centres unmarked)  IC50 (enzyme activity): 96.2 µM
COc1cc(C)cc(C2(O)NC(=O)c3c(OC)cc(OCc4ccccc4)cc32)c1OCc1ccccc1 (racemic)  IC50 (enzyme activity, fluorescence; pH 7.4): 22.2 µM
Cc1cc(=O)c2c(O)c3c(OC4OC(CO)C(O)C(O)C4O)cccc3cc2o1 (centres unmarked)  IC50 (enzyme activity): 11.3 µM
Cc1ccc2c(c1)/C(=N/N=C/c1ccc(OCc3ccccc3)cc1)C(=O)N2  IC50 (enzyme activity, fluorescence): > 40 µM
O=C(/C=C/c1ccc2c(c1)OCO2)c1cccs1  IC50 (enzyme activity, fluorescence): > 40 µM
COc1c(O)c(C)cc2c1C(=O)c1c(O)cc(O)cc1C2=O  IC50 (enzyme activity): 154 µM
COc1cc(/C=C/C(=O)O)ccc1O  IC50 (enzyme activity, fluorescence): 35.8 µM
COc1ccc2c(c1)/C(=N/N=C/c1cccc(OCc3ccccc3)c1)C(=O)N2  IC50 (enzyme activity, fluorescence): 11.1 µM
COc1cc(OC2OC(COC3OC(CO)C(O)C(OC4OC(COC5OC(CO)C(O)C(O)C5O)C(O)C(O)C4O)C3O)C(O)C(O)C2O)c2c(O)c3c(=O)cc(C)oc3cc2c1 (centres unmarked)  IC50 (enzyme activity): 40.6 µM
O=C1Nc2ccc(Cl)cc2/C1=N/N=C/c1ccc(OCc2cccc(F)c2)cc1  IC50 (enzyme activity, fluorescence): > 40 µM
O=C(/C=C/c1ccc2c(c1)OCCO2)c1cccs1  IC50 (enzyme activity, fluorescence): > 40 µM
COc1cc(/C=C/COC(=O)/C=C/c2ccc(O)c(OC)c2)ccc1O  IC50 (enzyme activity, fluorescence): 102 µM
Cc1ccc2c(c1)/C(=N/N=C/c1ccc(OCc3cccc(F)c3)cc1)C(=O)N2  IC50 (enzyme activity, fluorescence): > 40 µM
COc1cc(C)cc(C2NC(=O)c3c(OC)cc(O)cc32)c1O (racemic)  IC50 (enzyme activity, fluorescence; pH 7.4): 100 µM
O=C(/C=C/c1ccc2c(c1)OCCO2)c1ccc(Br)s1  IC50 (enzyme activity, fluorescence): > 40 µM
